Results from different studies.
Each line is one published result; not all experiments were run side by side. ± gives the spread as reported.

| SMILES | assay | system | conditions | scale | measurement | value |
| --- | --- | --- | --- | --- | --- | --- |
| Cc1cc(C)c(CNC(=O)c2cc(Cl)c3c(c2C)O[C@@](C)([C@H]2CC[C@H](N(C)C)CC2)O3)c(=O)[nH]1 | CTCAE v4.0 | human, relapsed/refractory NHL | oral, 200 mg once daily, onset after cycle 1 day 1 |  | patients with serious TEAEs | 29.2% |
| CNCc1ccc(-c2[nH]c3cc(F)cc4c3c2CCNC4=O)cc1 |  | human patients | oral, 840 mg twice daily, all grades |  | dysgeusia incidence | 66.7% |
| Cl.[2H]C([2H])([2H])CC(=O)c1cnc(NC(=O)C2CC2)cc1Nc1cccc(-c2ncn(C([2H])([2H])[2H])n2)c1OC | geometric mean | human | oral, 20 mg twice daily, day 1, fasted, tablet, multiple dose |  | AUC(0-tau) | 793 ng·h/mL |
| c1ncc(-c2ccc(C3CCCCC3)cc2)cn1 | liver microsome stability | cynomolgus liver microsomes | 1 µM |  | hepatic clearance | 36 mL/min/kg |
| N#Cc1ccc2c(c1)[C@H]1CCCN(C(=O)c3ccc4[nH]cnc4c3)[C@H]1C2 |  | human, male | 20 mg, day 15 |  | DHEA-S level | 7 µmol/L |
| CN1C(=O)[C@@H](NC(=O)c2nnc(Cc3ccccc3)[nH]2)COc2cccnc21 |  | human, plasma | oral, 50 mg once daily, day 1, median |  | Tmax | 3 h |
| C[C@@H]1OC(=O)[C@H](Cc2ccccc2)[C@H]1O | soil adsorption | clay soil | pH 7.6, organic carbon 1.7 % |  | KFoc | 218 mL/g |
| O=C1NCCc2nc(OCc3cccc(F)c3)ccc21 | item: Salivation | Sprague-Dawley rat male | oral, 100 mg/kg, 4 h | direction not given | Irwin test score | 0 |
| O=C(Nc1ccc(Cl)cc1)Nc1ccc(Cl)c(Cl)c1 |  | whole cow milk | 2000 nM nominal |  | dose fraction in skim milk | 10.8% |
| COCCC(=O)Nc1ccc([C@H]2[C@@H](F)[C@@H](F)C[C@@H](F)[C@H]2F)cc1 | liver microsome stability | cynomolgus liver microsomes | 1 µM |  | hepatic clearance | 4.9 mL/min/kg |
| COc1cc(Nc2ncc(F)c(Nc3ccc4c(n3)NC(=O)C(C)(C)O4)n2)cc(OC)c1OC |  | human | dose not given |  | single adjusting compartment volume | 1.2 L/kg |
| C=CC(=O)NC1CCN(c2ncc3ncnc(Nc4ccc(Oc5ccc6c(c5)ncn6C)c(C)c4)c3n2)CC1 |  | healthy male volunteers, urine | oral, 60 mg, 336 h post-dose, geometric mean |  | dose excreted unchanged | 0.139% |
| CCO |  | healthy Chinese men | 0.5 g/kg, supine or semi-supine, with: placebo | relative to: baseline | maximal decrease in diastolic BP | -14.4 ± 7.82 mmHg |
| CN(CCCN1CCN(C(=O)CN2CCN(CC(=O)[O-])CCN(CC(=O)[O-])CCN(CC(=O)[O-])CC2)CC1)c1ccc2nccc(C(=O)NCC(=O)N3CC(F)(F)C[C@H]3C#N)c2c1.[68Ga+3] |  | mice, HT-1080.hFAP and HT-1080 wild-type xenografts, lung | iv, 500 pmol, 1 h post injection |  | uptake | 0.6 ± 0.1 %IA/g |
| COc1cc(OC)c2nccc(N3CCc4c(cc(Cn5ccnc5)cc4-c4cn(C)nc4C(F)(F)F)C3=O)c2c1 |  | CD-1 mouse, male, plasma | oral, 50 mg/kg |  | AUC extrapolated | 0.1% |
| N#CCNC(=O)c1ccc(-c2ccnc(Nc3ccc(N4CCOCC4)cc3)n2)cc1 |  | healthy human volunteers, plasma | oral, dose not given, with: multiple-dose rifampin | relative to: compound alone | AUCinf ratio | 84.8% |
| CC(C(=O)Nc1ccc([C@H]2[C@@H](F)[C@@H](F)C[C@@H](F)[C@H]2F)cc1)n1cncn1 (some centres unmarked) |  | cryopreserved human hepatocytes | 1 µM |  | hepatic clearance | 6.2 mL/min/kg |
| Cc1cc(Nc2ccc(S(F)(F)(F)(F)F)cc2)n2nc(C(C)(F)F)nc2n1 |  | mouse (CD-1, female), whole blood | oral, 300 mg/kg daily, 8 h after dose 10 |  | blood concentration | 354 ± 65 µM |
| CC(C)C[C@H](N)C(=O)N[C@@H](Cc1c[nH]c2ccccc12)C(=O)N[C@@H](Cc1c[nH]c2ccccc12)C(=O)N[C@@H](CCCNC(=N)N)C(=O)N[C@@H](Cc1c[nH]c2ccccc12)C(=O)N[C@@H](Cc1c[nH]c2ccccc12)C(=O)N[C@@H](CCCNC(=N)N)C(=O)N[C@@H](Cc1c[nH]c2ccccc12)C(=O)N[C@@H](CCCNC(=N)N)C(=O)O | circular dichroism | 10 mM PBS |  |  | beta-sheet content | 18.9% |

| SMILES | assay | system | conditions | scale | measurement | value |
| --- | --- | --- | --- | --- | --- | --- |
| CC(C)(C(=O)N1CCOc2c(C#N)cncc2C1)C(F)F | item: skin disorders | healthy humans, both sexes | oral, 10 mg single dose |  | share of subjects with TEAE | 16.7% |
| Cc1cc(NC2CCN(C(=O)OC3CCN(C(=O)/C=C/CN(C)C)C3)CC2)n2ncc(C(C)C)c2n1 (centres unmarked) | Phase I dose escalation CTCAE v4.0, item: pain in extremity | patients with advanced solid tumours | dose not given, Total dosing any grade |  | patients with adverse event | 6% |
| C=CC(=O)NC1CCN(c2ncc3ncnc(Nc4ccc(Oc5ccc6c(c5)ncn6C)c(C)c4)c3n2)CC1 |  | human, male, plasma | oral, 240 mg, fed, adjusted geometric mean |  | AUC(0-tz) | 59.5 µM·h |
| CC(C)C[C@H](NC(=O)[C@@H](N)C(C)C)C(=O)N[C@@H](CCCNC(=N)N)C(=O)N[C@@H](Cc1c[nH]c2ccccc12)C(=O)N[C@@H](CO)C(=O)N[C@@H](CCCNC(=N)N)C(=O)N[C@@H](CCCCN)C(=O)N[C@@H](CC(C)C)C(=O)N1CCC[C@H]1C(=O)N[C@@H](CS)C(=O)N[C@H](C(=O)N[C@@H](CO)C(N)=O)C(C)C | 12G5 competition, SUP-T1 cells | human plasma | 20 µM, 2 h, 37 °C |  | remaining activity | 24 ± 4% |
| FC(F)=Cc1cc(C(F)(F)F)cc(C(F)(F)F)c1 | chemical stability, HPLC-MS | borate buffered saline | pH 10.2, no N-acetyl-lysine |  | degradation rate constant | 0.2 h⁻¹ |
| O=C(Nc1ccc(C2CCCCC2)cc1)[C@H]1CC1(F)F | liver microsome stability | mouse liver microsomes | 1 µM |  | hepatic clearance | 86 mL/min/kg |
| Cc1nc2cccc(OCC(C)(C)C(=O)NC(C)C)c2c(N)c1C(=O)O |  | male Swiss albino CD-1 mouse, bone marrow | oral, 1000 mg/kg, 24 h |  | micronucleated polychromatic erythrocytes | 0.05% |
| CN(C(=O)n1cnc(-c2ccc[n+]([O-])c2)c1)[C@H]1CC[C@H](O)CC1 |  | rat, hippocampus | oral, 10 mg/kg daily for 5 days, 24 h |  | tissue concentration | 13.3 ± 0.2 ng/g |
| O=C(c1ccc([C@H]2[C@@H](F)[C@@H](F)C[C@@H](F)[C@H]2F)cc1)N1CC(O)C1 | liver microsome stability | rat liver microsomes | 1 µM |  | hepatic clearance | 6.1 mL/min/kg |
| COc1ccc2[nH]c([S+]([O-])Cc3ncc(C)c(OC)c3C)nc2c1 (centres unmarked) |  | healthy Chinese volunteers, plasma | oral, 20 mg, fasted, CYP2C19 poor metabolizers |  | Cmax | 1500 ± 104 ng/mL |
| CCC(=O)N(CCC(c1ccc2c(c1)OCO2)c1ccccc1OC)Cc1ccccc1 (centres unmarked) |  | female athymic nude mouse, blood | i.p., 60 mg/kg twice daily, 14 days, group mean |  | LYMPH | 70% |
| O=C(CC1CCOCC1)Nc1ccc(C2CCCCC2)cc1 |  | dog liver microsomes | 1 µM |  | hepatic clearance | 23 mL/min/kg |
| CCN1CCN(Cc2ccc(Nc3ncc(F)c(-c4cc(F)c5nc6n(c5c4)[C@H](C)CCC6)n3)nc2)CC1 |  | human, plasma | 200 mg single dose, mean |  | CL/F | 32.3 L/h |
| O=C(Nc1nc2cccc(-c3ccc(CN4CCS(=O)(=O)CC4)cc3)n2n1)C1CC1 | item: arthralgia | human rheumatoid arthritis patients | oral, 300 mg once daily, 4 weeks, regardless of relatedness |  | treatment-emergent adverse events | 0% |
| O=C(Nc1ccc(-c2nc(-c3ccc(Cl)cc3)no2)cc1)[C@@H]1CC(=O)N(C[C@@H]2CCCNC2)C1 |  | Wistar rat male and female | ip, 20 mg/kg |  | time in open field centre | no effect |
| O=C(COc1ccc(Cl)cc1)NC12CC(c3nnc([C@H]4C[C@@H](OC(F)(F)F)C4)o3)(C1)C2 |  | humans | concentration not given |  | TEAE leading to discontinuation | 7.1% |
| O=C(NCCN1CCCC1=O)c1ccc(C2CCCCC2)cc1 | liver microsome stability | dog liver microsomes | 1 µM |  | hepatic clearance | 25 mL/min/kg |
| NCCCC[C@H](NCC(=O)O)C(=O)O | ultrafiltration | normal rat serum | 37 °C |  | serum protein binding | 41 ± 39% |
| O=C1CC[C@H](N2Cc3cc(N4CCN(CC5CCN(c6ccc([C@@H]7c8ccc(O)cc8CC[C@@H]7c7ccccc7)cc6)CC5)CC4)ccc3C2=O)C(=O)N1 |  | human | oral, 200 mg, with: dabigatran etexilate 75 mg |  | participants with TRAE diarrhoea | 0% |

| SMILES | assay | system | conditions | scale | measurement | value |
| --- | --- | --- | --- | --- | --- | --- |
| C=CC(=O)Nc1cc(Nc2nccc(-c3cn(C4CC4)c4ccccc34)n2)c(OC)cc1N(C)CCN(C)C | bench-top stability | rat plasma | 1 ng/mL, 3 h, room temperature | relative to: nominal concentration | relative error | -8.9% |
| CCN1/C(=C/C(C)=O)Sc2ccc(F)cc21 |  | cynomolgus monkey | oral, 10 mg/kg, 0.5 h post-dose |  | QRS duration | 36 ± 2 ms |
| C#C[C@]1(CO)O[C@@H](n2cnc3c(N)nc(F)nc32)C[C@@H]1O |  | human, plasma | oral, 400 mg, single dose, geometric mean |  | Vz/F | 1950 L |
| CNC(=O)c1ccc(-c2cnc3ncc(Cc4ccc5ncccc5c4)n3n2)cc1F | item: Headache | gastric cancer patients | oral, 600 mg twice daily, expansion cohort, grade 3-4 |  | patients with adverse event | 0% |
| N#CCC(=O)Nc1ccc(C2CCCCC2)cc1 | liver microsome stability | cynomolgus liver microsomes | 1 µM |  | hepatic clearance | 42 mL/min/kg |
| COc1cccc(-c2n[nH]c(SCc3ccccn3)n2)c1OC |  | Sprague-Dawley rats, both sexes | oral dietary, 100 mg/kg/day, day 7, 1 h |  | plasma concentration | 3060 ng/mL |
| Cc1c(C(=O)O)ccc2c3n(nc12)[C@@H]1[C@H](C3)N(CC2CC2)[C@@]2(C(=O)Nc3cc(Cl)ccc32)[C@H]1c1cccc(Cl)c1F | phase Ia trial, item: Pyrexia | cancer patients | oral, dose not given |  | adverse event incidence | 16% |
| COc1ccc2c(=O)n(C)c(-c3ccccc3)nc2c1 |  | Sprague-Dawley rat, male, small intestine | oral, 30 mg/kg, 0.5 h |  | concentration | 27300 ng/mL |
| C[C@@H]1CCO[C@H]2Cn3cc(C(=O)NCc4ccc(F)cc4F)c(=O)c(O)c3C(=O)N12 |  | human paediatric patients, weight sample C to under sample D kg, plasma | oral, 22.4 mg granules, 24 h, steady state, geometric mean, population PK post-hoc, N 3 |  | trough concentration (C24) | 962 ng/mL |
| NC1(C(=O)N[C@@H](CCO)c2ccc(Cl)cc2)CCN(c2nc[nH]c3nccc2-3)CC1 |  | metastatic CRPC patients | 400 mg b.i.d., grade 3 to 4, treatment-related, with: enzalutamide 160 mg daily |  | incidence of Vomiting | 0% |
| COc1cc(Nc2ncc3c(n2)-c2ccc(Cl)cc2C(c2c(F)cccc2OC)=NC3)ccc1C(=O)O | item: Nausea, grade 3 | cancer patients, phase 1/2 | oral, dose not given, with: pembrolizumab |  | patients with adverse event | 8% |
| CCn1ncc2c1-c1cnc(N)c(c1)O[C@H](C)c1cc(F)ccc1-c1nn(C)nc1C2 |  | female athymic nude mice, sample B PDX | oral, 15 mg/kg twice daily for 21 days, 1 h |  | unbound plasma concentration | 0.737 ± 0.058 µM |
| CN1CCN(c2cccc3c2CCN(C(=O)/C=C/c2c(-n4cnnn4)ccc(Cl)c2F)[C@@H]3C(=O)Nc2ccc(C(=O)O)cc2)C(=O)C1 |  | healthy human subjects | intravenous infusion, 9 mg/h, 5 days |  | subjects with serious adverse event | 0% |
| [18F]c1ccc(-c2ccc3c(c2)[nH]c2ccncc23)cn1 | microPET/CT imaging | B6SJL mouse, normal, brain | intravenous, 15 min |  | SUV | 0.749 ± 0.138 |
| CCOc1c([C@H](C)n2nc(C)c3c(N)ncnc32)cc(Cl)c(F)c1[C@@H]1CNC(=O)C1 | item: ΔQTcF ≤ 30 ms | previously treated B-cell malignancy | oral, dose not given, all doses, overall population |  | share of patients | 100% |
| Cn1ncnc1[C@H]1c2n[nH]c(=O)c3cc(F)cc(c23)N[C@@H]1c1ccc(F)cc1 |  | human patients, plasma | oral, 600 µg/m2 twice daily day 1, day 5, dose level DL5, median, with: temozolomide 40 mg/m2 daily days 2-6 |  | AUC(0-8h) | 109 ng·h/mL |
| C[C@@H](c1ccc2nccn2c1)n1nnc2ncc(-c3cnn(C)c3)nc21 | item: Pneumonitis grade ≥3 | EGFR-mutant MET-altered NSCLC | oral, dose not given, study |  | patients with treatment-related AEs | 0% |
| O=C1CCc2ccc(OCCCCN3CCN(c4cccc(Cl)c4Cl)CC3)cc2N1 | catalepsy, bar test | Sprague-Dawley rat | intraperitoneal, dose not given, 60 min |  | time on bar | < 20 s |
